Measurements of several laboratories.
A part holds a random share of what one study measured.

Set 1 — method: universal PBM; form: double-stranded DNA, one strand shown; matrix: in vitro; concentration: not given; direction: higher = stronger binding
Target: Sal-like protein 4, full length isoform B (SALL4, Homo sapiens, UniProt Q9UJQ4-2, residues 1-616)
Notes: 8-mer, flanks averaged, mean of replicates
Residues (chain): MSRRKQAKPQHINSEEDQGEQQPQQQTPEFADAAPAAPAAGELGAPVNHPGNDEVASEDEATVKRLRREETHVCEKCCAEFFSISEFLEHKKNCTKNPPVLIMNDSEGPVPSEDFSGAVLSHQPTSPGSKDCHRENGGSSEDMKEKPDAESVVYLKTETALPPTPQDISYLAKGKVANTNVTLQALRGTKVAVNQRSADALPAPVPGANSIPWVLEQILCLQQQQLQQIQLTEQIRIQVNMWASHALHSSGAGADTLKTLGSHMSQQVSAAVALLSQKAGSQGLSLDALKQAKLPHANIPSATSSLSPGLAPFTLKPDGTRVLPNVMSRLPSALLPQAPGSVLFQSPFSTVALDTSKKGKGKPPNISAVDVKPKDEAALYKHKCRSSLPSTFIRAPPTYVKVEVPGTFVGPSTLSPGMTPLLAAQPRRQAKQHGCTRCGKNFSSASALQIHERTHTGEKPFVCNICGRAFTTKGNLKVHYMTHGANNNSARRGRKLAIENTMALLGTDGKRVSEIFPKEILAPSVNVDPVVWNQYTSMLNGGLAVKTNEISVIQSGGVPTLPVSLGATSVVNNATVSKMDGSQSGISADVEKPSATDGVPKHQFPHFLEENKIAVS
With `GAACTGTC` the E-score was -0.189.
`AATTCTAA` gave an E-score of 0.248.
With `TGACATCA` the E-score was 0.135.
For `AAACAGAA`, the E-score was 0.18.
`CAAAAGCA` has an E-score of 0.0396.
With `CTATAAAC` the E-score was 0.279.
The E-score of `AGAGTACA` is reported as 0.0799.
The E-score of `GGCCTGGA` is reported as -0.286.

Set 2 — method: DNA-protein interaction ELISA; form: double-stranded DNA, one strand shown; matrix: in vitro, bacterial lysate; concentration: not given; notes: whole dsDNA probe, crude lysate protein; baseline: highest signal in screen; direction: higher = stronger binding
Target: Probable WRKY transcription factor 33, C-terminal DNA-binding domain (WRKY33, Arabidopsis thaliana, UniProt Q8S8P5, residues 346-449)
Construct (chain): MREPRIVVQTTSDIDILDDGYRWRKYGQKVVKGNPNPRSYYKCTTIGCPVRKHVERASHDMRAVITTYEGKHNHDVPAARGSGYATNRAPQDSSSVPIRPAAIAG
The relative absorbance of `AAAAAAAACGTCTGGCGGGGTTGAGAAAAA` is reported as 46.6 % of maximum.
`AAAAAATACTCTTCCTCGTTCTTGGTAAAA` gave a relative absorbance of 32 % of maximum.
For `AAAAAAGTCGTTACACGTATGCGTGCAAAA`, the relative absorbance was 97.7 % of maximum.
`AAAAAAGCTTTCAACATCTGCGTCCAAAAA` gave a relative absorbance of 34.6 % of maximum.
The relative absorbance of `AAAAAAAACAAAACCTCCTAATAGCGAAAA` is reported as 35.6 % of maximum.
With `AAAAAACCCTACATCGCATATAAGAGAAAA` the relative absorbance was 32.1 % of maximum.
The relative absorbance of `AAAAAACCCGGTTGGAGAAAATAATTAAAA` is reported as 41.3 % of maximum.
`AAAAAATATGGCACTCGCCGCACATCAAAA` has a relative absorbance of 43 % of maximum.

Set 3 — method: protein-binding microarray; form: double-stranded DNA, one strand shown; matrix: in vitro; concentration: 0.8 µM; notes: whole 60-bp probe, no competitor; direction: higher = stronger binding
Target: Centromere-binding protein 1, full length, N-terminal tag (CBF1, Saccharomyces cerevisiae, UniProt P17106, residues 1-351)
Sequence of UniProt P17106 (whole entry, looked up): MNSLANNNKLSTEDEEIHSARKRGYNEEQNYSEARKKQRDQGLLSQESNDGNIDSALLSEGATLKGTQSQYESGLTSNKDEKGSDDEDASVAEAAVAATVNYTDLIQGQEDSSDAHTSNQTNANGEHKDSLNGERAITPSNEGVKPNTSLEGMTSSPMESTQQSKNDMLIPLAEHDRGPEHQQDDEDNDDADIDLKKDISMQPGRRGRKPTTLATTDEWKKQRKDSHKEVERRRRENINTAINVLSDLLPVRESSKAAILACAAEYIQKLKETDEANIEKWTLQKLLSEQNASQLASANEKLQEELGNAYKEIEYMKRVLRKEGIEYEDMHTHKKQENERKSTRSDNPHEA
`GAAATCAGAAGGATTCTCACCTGGTTGCAACCATAGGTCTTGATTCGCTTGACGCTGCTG` gave a fluorescence intensity of 516 a.u.
With `CTATCATTTACTATTCTCGTGATATTTTAGTAGTTCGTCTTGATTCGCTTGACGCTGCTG` the fluorescence intensity was 1130 a.u.
With `CTAGCTACGTATACAGGTGAGTATATTCATGCGTTCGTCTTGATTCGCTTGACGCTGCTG` the fluorescence intensity was 507 a.u.
`GAAAGATACGGTATGCCCGTGTATTTATCCTCCTAGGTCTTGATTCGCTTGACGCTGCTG` gave a fluorescence intensity of 483 a.u.
For `CTACGCTGCCTTCCGTACGTCACAACGCATACATTCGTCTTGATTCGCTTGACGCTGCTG`, the fluorescence intensity was 552 a.u.
With `GAATAGTTATTTTGTGACACAAAAACAAAATCGTAGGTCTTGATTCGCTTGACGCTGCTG` the fluorescence intensity was 563 a.u.
`CTACACCCGCGGGTCGTGATCACGATTCAGCACTTCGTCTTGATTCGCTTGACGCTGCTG` gave a fluorescence intensity of 3020 a.u.
The fluorescence intensity of `CTATGGTCAGATCATCAGGCCAACGGCAAATGCTTCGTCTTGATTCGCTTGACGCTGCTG` is reported as 512 a.u.

Further values, each from its own experiment
With `O=C(O)CCc1nc(-c2ccccc2)c(-c2ccccc2)o1` the infection rate was 101% (Plasmodium berghei; inhibitor; Huh-7, GFP-expressing, liver stage; 10 µM, 24 h; baseline: untreated control).

A few entries again (set 2):
The relative absorbance of `AAAAAAAACGTCTGGCGGGGTTGAGAAAAA` is reported as 46.6 % of maximum.
`AAAAAAGCTTTCAACATCTGCGTCCAAAAA` gave a relative absorbance of 34.6 % of maximum.
